Measurements of several laboratories.
Every numbered part comes from another study and shows a few of its results, in no order. Substitutions count along the parent as printed.

Block 1 — target: CCNB1, cyclin fold, Cln2 fusion (human); method: yeast growth competition, sequencing; medium: yeast; setting: strong parent motif; baseline: not given; direction: higher = stronger binding; measurement: normalised enrichment score
Parent: E2F1 docking peptide (human); PPVKRRLDFETDH; partner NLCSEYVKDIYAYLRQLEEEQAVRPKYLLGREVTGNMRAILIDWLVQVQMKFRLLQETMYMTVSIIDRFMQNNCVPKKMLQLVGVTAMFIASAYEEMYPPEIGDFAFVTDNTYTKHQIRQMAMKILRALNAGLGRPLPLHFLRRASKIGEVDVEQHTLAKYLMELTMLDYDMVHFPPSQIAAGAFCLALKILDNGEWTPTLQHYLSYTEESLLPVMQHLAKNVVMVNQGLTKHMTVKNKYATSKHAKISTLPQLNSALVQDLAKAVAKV
PPVKRRLDFEVDH [T11V]: 4.98
PPVWRRLDFETDH [K4W]: 3.46
PPVNRRLDFETDH [K4N]: 5.05
PPVKRRLDFLTDH [E10L]: 3.93
PPVKRRLDFEMDH [T11M]: 5.11
PPVKRRLVFETDH [D8V]: 4.2
PPVKRYLDFETDH [R6Y]: 3.01
PDVKRRLDFETDH [P2D]: 5.13
PPVKRRIDFETDH [L7I]: 3.12
PPVKKRLDFETDH [R5K]: 4.16
PPVKRRLDKETDH [F9K]: 0.704
PPVKRRSDFETDH [L7S]: -0.0345
PPVKRQLDFETDH [R6Q]: 3.94
PKVKRRLDFETDH [P2K]: 4.79
PPVKTRLDFETDH [R5T]: 2.32
PPVKRCLDFETDH [R6C]: 4.11
PPVKRDLDFETDH [R6D]: 0.06

Block 2 — method: RNA Bind-n-Seq; form: RNA; medium: in vitro; concentration: 20 nM; setting: 6-mer, flanks averaged, single round; added: 150 mM LiCl; baseline: input library; direction: higher = stronger binding; measurement: 6-mer enrichment (R)
Target: TAR DNA-binding protein 43, full length, His tag (TARDBP, Homo sapiens, UniProt Q13148, residues 1-414)
GAUCGG: 1.02
CAGGUG: 1.08
UAGAGG: 1.06
CUUAAC: 0.861
GCACCC: 1.1
GUGGAU: 1.19
CAAUCG: 0.803
CGGGCA: 0.964
CGUGGC: 1.01
AAUACU: 0.856
GUGCAA: 1
UUGUUG: 1.36
AAGUCU: 0.825
AGGGAC: 1.03
CAGGGC: 0.973
GACUGA: 0.947
GCCUGC: 0.963
AACACG: 0.823
CUUCCC: 1.02
GAUUAG: 0.935
UAAUGA: 0.919
CAACGC: 0.83
GCGCGU: 1.13

Block 3 — method: DHFR PCA, deep sequencing; medium: yeast; added: (+)-ABA 0 µM; baseline: wild-type fitted maximum; direction: higher = stronger binding; measurement: relative binding score
Target: ABI1, truncated, D143A, DHFR fusion (Arabidopsis thaliana)
Setting: methotrexate growth selection, single substitutions
Parent: PYL1, truncated, DHFR fusion (Arabidopsis thaliana); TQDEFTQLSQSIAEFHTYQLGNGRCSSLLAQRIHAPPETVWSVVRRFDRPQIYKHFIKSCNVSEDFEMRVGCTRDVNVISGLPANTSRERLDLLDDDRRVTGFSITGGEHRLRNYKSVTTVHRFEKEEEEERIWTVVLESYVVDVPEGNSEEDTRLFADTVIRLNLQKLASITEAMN
Q167S: 11.4%
S140T: 8.81%
E89C: -2.67%
V121S: 2.42%
Y53A: -1.57%
P36E: 8.68%
T73W: 17.9%
S9F: 5.66%
R163C: -4.73%
V43K: -4.26%
T119A: -4.46%
C72P: -0.917%
Y53F: 4.84%
G71V: 2.41%
I33M: 4.25%
M68R: -0.692%
A175H: 9.88%
S140Y: -0.843%
T17V: -0.118%
R99N: -0.218%
Q2I: 68.6%
V137Y: -10.5%
C25W: -1.67%
D144F: -21.1%
S9T: 27.1%

Block 4 — method: EMSA with sequencing; form: double-stranded DNA, one strand shown; medium: in vitro; concentration: 10 and 20 nM; baseline: negative control set to 0; direction: higher = stronger binding; measurement: normalised bound fraction
Target: Hepatocyte nuclear factor 3-alpha (Foxa1, Mus musculus, UniProt P35582, residues 1-468, full length assumed)
Setting: whole designed probe, mean of two concentrations, ends assumed
Shared flanks, not repeated: GTGAGCGGTGCCCATTGATGGGGAAC … TTTCACTGGGATCGTGGGGAC
Target sequence (chain): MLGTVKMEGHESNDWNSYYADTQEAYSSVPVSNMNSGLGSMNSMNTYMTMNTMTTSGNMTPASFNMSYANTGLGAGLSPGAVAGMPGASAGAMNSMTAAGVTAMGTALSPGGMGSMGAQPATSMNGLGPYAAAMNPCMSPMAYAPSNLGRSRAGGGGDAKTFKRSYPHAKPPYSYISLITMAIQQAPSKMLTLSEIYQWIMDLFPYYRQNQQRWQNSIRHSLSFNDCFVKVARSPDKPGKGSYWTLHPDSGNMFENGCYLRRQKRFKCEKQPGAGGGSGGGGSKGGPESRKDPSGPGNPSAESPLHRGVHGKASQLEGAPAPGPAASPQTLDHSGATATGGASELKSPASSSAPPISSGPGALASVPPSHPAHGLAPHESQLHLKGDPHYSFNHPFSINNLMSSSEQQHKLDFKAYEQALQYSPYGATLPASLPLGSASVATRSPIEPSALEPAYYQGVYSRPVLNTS
GCTTTAAATATCAAGCCTAAGCTAATGTAAGCAAAGGATATTGTTAGTAGTAGCAAATTAGTATTAGTAGTAGCAAATTAATTAATTCAGTGAAGATTACTAAATATCCTCAATTATGTTATTTGTTAATTTGAAGTTTCTGTAAGAAAGAGAATACATGAACTTGAATTTCACAAATACCTGTGAATTGCAC: 0.111 ratio
TAAACAAAGCTGGTCGCCCAATGAAGAGGCGGCGGGGGCGGGCGCTGGGCCGGGGAGGCCGGGGGCGGAGCCGGGGGCGGGGCGACCGGGCGGTGTTTACAGACCGGCACATGGCGCTTCCGGTTGACGTTGCTGACAGCTAGTGAGGCTTTAGCCCGCTTCGAGCGCCCGGGGGCGGTAAGGCGCGATCATA: 0.463 ratio
CTGAAAGACTGGCGTAACATGATGAAGAAGGAGGTATTCTGGACCATGTAAAGGACAGCGGATTGCTAAGGTCAACATTTAATGAGTCAGAAAGTCAATAAGAGATGAGTTTGGAATAGTAGGGTCTGGAGATGACGGAAGAGCTGGAATGAATGTTAAACTCAAAAGTGTCAACTCCCATAGGCAGTGGGCA: 0.237 ratio
AAAAATGCTCATCTCTGAATGGTGGGATTATTGTTTCTATATTCTTCTTATACATGCCTGTATTTTTTTAAACAATGAATGTTTATTACTCTGAGATTACAAAAAAGGGAGAGTTTAAAGCCCCTTACCCCAAAGTGAGGCAGGAATCAAGTCAGGGGCTTAAAGTGGCGAGCCCTGGGCTCTTTCCTGGGCT: -0.0308 ratio
ATCTTCCCCCTCTTCCTTGCCCCACCAGCTCACCTTCCCGGGTTATTTGCAGATAGGAAAATAAATAAAGCCGGCATTCGTTAACGCAGTTCACGCGCATACTGCTGTTTGCTCTGCATCTAACATGGTCCTTACGCGACGCCAGGCTCCGGGAGAGCAAAGCACCGTGTCAGGCGCATGATCCGGGGTGGCC: 0.363 ratio
ACATATGACCATTTTTTGGTTTATGTTTGGTCCCCTCTGATTGTTACATATACTTGAATTGCTTGCTTGGATGGGGAGCATACAAAATAATTAAGTAATCTTGAAGAAAAGTAGCTTGATTCGTTGCTAGGCTGAAGGATCACATAGAAAAGTTTTTTTCCAATTGCCCAAAATTAAGTACAAATACACACAT: 0.0116 ratio
ATCTAATCCATACCAAGGATTCCCATGGGGAAACTGTTATCTCTCAACTCAGTGAGGGCTATTGACAAAGACCAGTGCTCTTTCTTCTCTGTAGGTAAACAGTGACTCATGCAAGCCTGAGGGAGAAAATACAGTATATCTAAGAGTTAAGACCTCCCAGCTTCACATTCTGTTATAGCAGCTGCTTCATGCC: 0.227 ratio
ATCTTCCCCCTCTTCCTTGCCCCACCAGCTCACCTTCCCGGGTTATTTGCAGATAGGAAAATAAATAAAGCCGGCATTCGTTAACCCTCTTCTGGCGCAAACTGCTGTTTGCTCTGGATGAATCATGGTCCTTTGGCGACGCCAGGCTCCGGGAGAGCAAAGCACCGTAGCCGAGTGCTGATCCGGGGTGGCC: 0.338 ratio

Block 5 — method: RNA Bind-n-Seq; form: RNA; medium: in vitro; concentration: not given; baseline: input RNA pool; direction: higher = stronger binding; measurement: bound/input enrichment
Target: RING finger protein unkempt homolog, zinc fingers 1-6, GST-SBP tag (UNK, Homo sapiens, UniProt Q9C0B0, residues 30-357)
UniProt Q9C0B0, sequence (30-357, looked up): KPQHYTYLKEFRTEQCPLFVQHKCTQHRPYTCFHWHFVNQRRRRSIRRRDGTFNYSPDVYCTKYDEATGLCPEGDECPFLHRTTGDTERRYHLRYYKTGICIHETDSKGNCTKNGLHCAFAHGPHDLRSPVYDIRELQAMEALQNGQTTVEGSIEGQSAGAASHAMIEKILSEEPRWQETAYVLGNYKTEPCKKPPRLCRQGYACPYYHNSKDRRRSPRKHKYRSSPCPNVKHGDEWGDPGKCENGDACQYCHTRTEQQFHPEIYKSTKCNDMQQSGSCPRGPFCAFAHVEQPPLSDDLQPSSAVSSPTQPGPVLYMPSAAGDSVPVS
Setting: RNA with constant flanks, human-mouse chimeric sites, ends assumed
Shared flanks, not repeated: GGGAGUUCUACAGUCCGACGAUC … CAACAGAGGAUUGAGCAUCA
GGCUGCUGGUGACUGUCGGGAGCCGUCUGGAGUUCCCGCCGGAGCGCGGCCAGACUAAUUUUAGAAAAUGCCAAGUAGGAAAUUUGCUGAGGGUGAAGUGGUCAGAGGCCGAUGGCCUGG: 1.99 ratio
UCUUUAAAAAAAAAAUUACCUUUUCUGACAGUGCUUUCCCUCCCAUAGAUCCACGUUCAAGCUCAAAGGCCAAAACUUUUGCACGGAGCUCAAACAUAAAAGAAAGAAAGAUUUCUGAGA: 0.503 ratio
AAGGUGAUGACUAUGUUUGUCCAACGACAGGUAUUUUCGGAGAGCAAAGAUGAGAUUGCGUUAGUCCUCUAUGGCACAGAUGGCACUGAUAAUGCCCUUGCUGGCAAGGACCAGUAUCAG: 0.133 ratio
CGGAGCCCCUCCCUCUCACAGGCCCAAGAUAUAACCCACCAGUGCCUUCUGUCUGCUUGUCAGCUCUGUCAAUCACGCCUGUCCUCUCACGCCCACACCAAGUGCCCAAAGUGGGGAGGG: 0.429 ratio
CUGAGGAUACCACUGAAGAGACCUUAAAAGAAUCAUUUUGACGGCUCGUUCGUGCAAGAAUAGUCACUGAUCGGGAAACUGGUUCUUCCAAAGGGUUUGGUUUUGUAGACUUUAAUAGUG: 0.763 ratio
UACUGCUGCUUUCAACUUAAAUCACUGCAUUUUUACUACUGUUCUGUGAGCAUCAGGACUGUAGCGCUGUGUCACCACAUGAGAGUUCAGAAGCAGCCUUUCUGUGGAGGGUGGGAAUGA: 0.214 ratio
CAGGGCAUCAUCUCUCGUGCUGUUAGACACCUGUUCAAGAGUAUUGAUGAGAAAAAGCACAUAGCAAUUAAAAACGGGCUGCCCCCUCCUGAAUUCAAAGUGAAUGCCCAAUUCUUAGAG: 2.33 ratio
UUGUGCAAUGAUGCUUGAGAUGGUUUUUGCAAAAGCAGAAAUCGCUGCAAGGUAAUCACAAUAGAUACAAGCGGUAUUUUAAACCUUUGAAAUAAAUGGAUGUAACUGUACCUUGGUACA: 0.263 ratio

Block 6 — method: protein binding microarray; form: double-stranded DNA, one strand shown; medium: in vitro; concentration: not given; baseline: not given; direction: higher = stronger binding; measurement: E-score
Target: Histone acetyltransferase KAT6A, winged helix 1, GST fusion (KAT6A, Homo sapiens, UniProt Q92794, residues 1-85)
Setting: 8-mer, flanks averaged, mean of 2 arrays, mostly near background
Residues (chain): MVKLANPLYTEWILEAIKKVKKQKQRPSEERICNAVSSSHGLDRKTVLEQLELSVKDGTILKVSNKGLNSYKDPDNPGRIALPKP
ACCATCGA: -0.263
CGGGTAGA: 0.142
ACCACCGT: 0.16
ACGGCCAC: 0.295
CGAACTAC: 0.0186
CTGATAAC: -0.0791
CCATGCAA: -0.0615
GGCAGCCA: 0.0173
AACCTCTC: 0.0433
CTCGGCGC: 0.376
AGAAGTCT: -0.128
GGCGAGCA: 0.077
ACACTTGG: -0.22
CCAGACCA: -0.277
CAATACGG: 0.235
GGTAGTAA: -0.129
CTGCATGC: 0.0111
AATTTGAA: -0.0156
AAAACTGC: -0.171
CCACTGCC: -0.102

Other studies, line by line
PhoQ, residues 284 288 289 292 302 303 SSCLAV — fold induction (PhoP, residues 12 14 15 18 19 NQGLL (Escherichia coli, UniProt P23836); Sort-seq, item: YFP reporter; E. coli; PhoQ-PhoP variant library, added: 10 µM Mg2+; baseline: high Mg2+ state, higher = stronger signaling): 6.48
